{"data": "Measurements gathered from unrelated publications", "note": "Every numbered part comes from another study and shows a few of its results, in no order.", "sequence of UniProt Q13705 (whole entry, looked up)": "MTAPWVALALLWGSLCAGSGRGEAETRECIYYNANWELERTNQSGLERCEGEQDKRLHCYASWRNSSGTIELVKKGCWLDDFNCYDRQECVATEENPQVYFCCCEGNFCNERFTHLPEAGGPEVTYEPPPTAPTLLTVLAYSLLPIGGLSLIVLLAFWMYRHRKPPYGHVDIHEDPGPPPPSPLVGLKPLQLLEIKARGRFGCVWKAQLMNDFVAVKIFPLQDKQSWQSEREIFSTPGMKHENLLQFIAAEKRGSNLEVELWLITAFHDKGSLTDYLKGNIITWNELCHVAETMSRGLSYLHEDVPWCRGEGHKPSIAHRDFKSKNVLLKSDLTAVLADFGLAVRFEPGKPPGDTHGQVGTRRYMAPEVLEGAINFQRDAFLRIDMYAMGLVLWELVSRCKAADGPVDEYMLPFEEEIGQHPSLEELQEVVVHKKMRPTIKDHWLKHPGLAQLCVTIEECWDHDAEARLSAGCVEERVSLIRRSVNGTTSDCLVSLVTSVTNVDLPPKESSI", "sequence of UniProt Q9H1R3 (whole entry, looked up)": "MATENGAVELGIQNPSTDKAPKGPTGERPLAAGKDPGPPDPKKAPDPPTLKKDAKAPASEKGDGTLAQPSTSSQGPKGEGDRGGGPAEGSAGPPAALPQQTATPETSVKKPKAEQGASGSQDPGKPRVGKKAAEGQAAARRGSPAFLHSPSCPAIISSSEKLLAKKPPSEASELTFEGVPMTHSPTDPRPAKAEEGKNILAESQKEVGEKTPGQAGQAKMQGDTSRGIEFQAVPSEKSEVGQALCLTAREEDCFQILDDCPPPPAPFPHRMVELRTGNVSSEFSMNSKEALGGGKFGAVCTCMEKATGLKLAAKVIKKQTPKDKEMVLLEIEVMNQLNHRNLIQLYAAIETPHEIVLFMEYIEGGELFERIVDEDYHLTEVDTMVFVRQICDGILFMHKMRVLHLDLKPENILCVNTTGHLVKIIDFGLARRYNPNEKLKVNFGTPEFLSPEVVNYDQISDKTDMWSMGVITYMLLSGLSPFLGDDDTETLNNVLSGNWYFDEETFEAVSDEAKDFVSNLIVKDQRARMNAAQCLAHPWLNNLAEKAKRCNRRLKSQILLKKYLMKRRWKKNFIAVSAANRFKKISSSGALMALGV", "sequence of UniProt P07333 (whole entry, looked up)": "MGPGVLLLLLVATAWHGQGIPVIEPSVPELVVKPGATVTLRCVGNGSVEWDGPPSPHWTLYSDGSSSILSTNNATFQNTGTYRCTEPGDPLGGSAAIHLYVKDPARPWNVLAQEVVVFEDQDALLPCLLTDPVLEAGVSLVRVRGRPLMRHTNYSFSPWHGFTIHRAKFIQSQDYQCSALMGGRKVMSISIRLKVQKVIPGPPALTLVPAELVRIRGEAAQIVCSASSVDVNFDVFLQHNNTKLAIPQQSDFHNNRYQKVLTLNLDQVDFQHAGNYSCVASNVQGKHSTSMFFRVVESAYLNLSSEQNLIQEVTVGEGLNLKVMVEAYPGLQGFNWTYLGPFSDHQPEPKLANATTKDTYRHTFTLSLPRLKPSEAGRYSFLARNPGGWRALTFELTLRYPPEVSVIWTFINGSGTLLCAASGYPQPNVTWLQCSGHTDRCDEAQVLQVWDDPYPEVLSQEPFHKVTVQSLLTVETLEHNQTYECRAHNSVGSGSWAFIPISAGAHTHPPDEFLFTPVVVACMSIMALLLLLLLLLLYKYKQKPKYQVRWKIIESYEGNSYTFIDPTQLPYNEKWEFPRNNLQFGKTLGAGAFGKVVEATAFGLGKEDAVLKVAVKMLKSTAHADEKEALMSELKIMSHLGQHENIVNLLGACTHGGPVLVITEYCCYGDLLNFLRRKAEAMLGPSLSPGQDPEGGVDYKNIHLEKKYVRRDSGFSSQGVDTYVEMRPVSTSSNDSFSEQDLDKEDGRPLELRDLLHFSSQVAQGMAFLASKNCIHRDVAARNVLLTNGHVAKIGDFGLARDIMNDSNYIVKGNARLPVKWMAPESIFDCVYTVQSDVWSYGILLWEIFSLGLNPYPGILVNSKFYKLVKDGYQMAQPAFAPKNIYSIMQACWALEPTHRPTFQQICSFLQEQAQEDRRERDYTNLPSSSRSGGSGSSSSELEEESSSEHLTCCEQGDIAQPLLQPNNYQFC", "sequence of UniProt P32298 (whole entry, looked up)": "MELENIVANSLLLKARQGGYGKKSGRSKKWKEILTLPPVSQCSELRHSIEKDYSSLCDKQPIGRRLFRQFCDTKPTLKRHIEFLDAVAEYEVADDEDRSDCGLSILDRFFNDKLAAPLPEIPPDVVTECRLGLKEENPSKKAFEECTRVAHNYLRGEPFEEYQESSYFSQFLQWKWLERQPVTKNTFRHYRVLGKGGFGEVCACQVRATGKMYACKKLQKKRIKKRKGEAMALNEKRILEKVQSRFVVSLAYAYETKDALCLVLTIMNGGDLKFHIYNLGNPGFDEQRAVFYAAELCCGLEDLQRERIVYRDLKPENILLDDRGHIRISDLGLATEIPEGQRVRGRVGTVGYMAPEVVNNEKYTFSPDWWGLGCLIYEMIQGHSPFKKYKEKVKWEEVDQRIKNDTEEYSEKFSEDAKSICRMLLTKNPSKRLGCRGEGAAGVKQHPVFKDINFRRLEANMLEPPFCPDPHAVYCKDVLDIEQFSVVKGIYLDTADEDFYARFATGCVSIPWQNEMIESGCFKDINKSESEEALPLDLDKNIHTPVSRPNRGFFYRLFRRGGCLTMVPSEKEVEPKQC", "sequence of UniProt Q13163 (whole entry, looked up)": "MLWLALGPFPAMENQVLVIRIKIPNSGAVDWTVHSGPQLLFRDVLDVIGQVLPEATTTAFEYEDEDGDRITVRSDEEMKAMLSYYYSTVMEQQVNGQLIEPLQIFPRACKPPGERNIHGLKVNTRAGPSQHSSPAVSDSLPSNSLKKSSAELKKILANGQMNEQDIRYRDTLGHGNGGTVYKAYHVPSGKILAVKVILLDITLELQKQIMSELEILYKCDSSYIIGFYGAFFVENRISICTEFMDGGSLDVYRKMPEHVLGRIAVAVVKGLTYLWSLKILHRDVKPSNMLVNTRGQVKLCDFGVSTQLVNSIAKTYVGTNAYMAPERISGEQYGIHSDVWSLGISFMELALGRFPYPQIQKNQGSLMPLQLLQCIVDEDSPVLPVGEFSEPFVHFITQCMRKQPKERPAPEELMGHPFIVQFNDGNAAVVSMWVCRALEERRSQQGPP", "sequence of UniProt P49840 (whole entry, looked up)": "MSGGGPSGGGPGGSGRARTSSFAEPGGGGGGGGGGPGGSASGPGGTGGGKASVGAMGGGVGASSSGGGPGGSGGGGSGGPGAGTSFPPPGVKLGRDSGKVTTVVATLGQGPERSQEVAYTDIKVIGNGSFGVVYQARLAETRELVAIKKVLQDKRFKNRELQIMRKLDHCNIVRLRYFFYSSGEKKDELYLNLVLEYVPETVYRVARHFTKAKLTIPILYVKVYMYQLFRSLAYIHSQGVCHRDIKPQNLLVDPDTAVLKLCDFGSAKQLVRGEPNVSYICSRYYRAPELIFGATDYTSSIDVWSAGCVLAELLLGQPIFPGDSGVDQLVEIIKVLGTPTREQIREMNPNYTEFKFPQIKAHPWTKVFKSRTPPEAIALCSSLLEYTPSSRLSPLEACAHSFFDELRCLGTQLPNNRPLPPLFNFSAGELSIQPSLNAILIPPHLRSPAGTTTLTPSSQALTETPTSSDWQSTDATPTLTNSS", "sequence of UniProt Q8N752 (whole entry, looked up)": "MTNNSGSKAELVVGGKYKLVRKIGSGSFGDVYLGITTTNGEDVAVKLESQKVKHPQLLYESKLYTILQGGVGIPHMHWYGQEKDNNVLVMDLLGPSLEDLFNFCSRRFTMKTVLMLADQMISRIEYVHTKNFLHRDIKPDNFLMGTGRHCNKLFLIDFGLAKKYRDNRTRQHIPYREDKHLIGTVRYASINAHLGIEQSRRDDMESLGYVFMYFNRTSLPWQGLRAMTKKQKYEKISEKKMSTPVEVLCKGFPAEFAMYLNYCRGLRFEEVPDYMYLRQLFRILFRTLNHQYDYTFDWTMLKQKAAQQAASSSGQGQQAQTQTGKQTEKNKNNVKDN"}
{"data": "Sample 1", "SMILES": "C=CC(=O)N1CCC([C@@H]2CCNc3c(C(N)=O)c(-c4ccc(Oc5ccccc5)cc4)nn32)CC1", "concentration": "1 µM"}
{"target": "PIM2 (Homo sapiens, UniProt Q9P1W9)", "effect on": "enzyme activity", "mode": "inhibitor", "inhibition": "0%"}
{"target": "CSF1R (Homo sapiens, UniProt P07333)", "effect on": "cell-free assay", "inhibition": "0%"}
{"target": "MYLK3 (Homo sapiens, UniProt Q32MK0)", "effect on": "enzyme activity", "mode": "inhibitor", "inhibition": "0%"}
{"target": "FGR (Homo sapiens, UniProt P09769)", "effect on": "enzyme activity", "mode": "inhibitor", "inhibition": "54%"}
{"target": "RIPK1 (Homo sapiens, UniProt Q13546)", "effect on": "enzyme activity", "mode": "inhibitor", "inhibition": "5%"}
{"target": "STK17A (Homo sapiens, UniProt Q9UEE5)", "effect on": "enzyme activity", "inhibition": "8%"}
{"target": "PRKCI (Homo sapiens, UniProt P41743)", "effect on": "enzyme activity", "mode": "inhibitor", "inhibition": "15%"}
{"target": "EGFR (Homo sapiens, UniProt P00533, A750P/del747-749)", "effect on": "cell-free assay", "inhibition": "24%"}
{"target": "MAP2K5 (Homo sapiens, UniProt Q13163)", "effect on": "enzyme activity", "mode": "inhibitor", "inhibition": "94%"}
{"target": "SIK2 (Homo sapiens, UniProt Q9H0K1)", "effect on": "enzyme activity", "mode": "inhibitor", "inhibition": "0%"}
{"target": "STK17B (Homo sapiens, UniProt O94768)", "effect on": "enzyme activity", "inhibition": "9%"}
{"target": "PAK3 (Homo sapiens, UniProt O75914)", "effect on": "enzyme activity", "mode": "inhibitor", "inhibition": "0%"}
{"data": "Sample 2", "target": "MAP kinase-interacting serine/threonine-protein kinase 1 (MKNK1, Homo sapiens, UniProt Q9BUB5)", "effect on": "enzyme activity", "mode": "inhibitor", "concentration": "0.5 µM", "baseline": "control", "sequence of UniProt Q9BUB5 (whole entry, looked up)": "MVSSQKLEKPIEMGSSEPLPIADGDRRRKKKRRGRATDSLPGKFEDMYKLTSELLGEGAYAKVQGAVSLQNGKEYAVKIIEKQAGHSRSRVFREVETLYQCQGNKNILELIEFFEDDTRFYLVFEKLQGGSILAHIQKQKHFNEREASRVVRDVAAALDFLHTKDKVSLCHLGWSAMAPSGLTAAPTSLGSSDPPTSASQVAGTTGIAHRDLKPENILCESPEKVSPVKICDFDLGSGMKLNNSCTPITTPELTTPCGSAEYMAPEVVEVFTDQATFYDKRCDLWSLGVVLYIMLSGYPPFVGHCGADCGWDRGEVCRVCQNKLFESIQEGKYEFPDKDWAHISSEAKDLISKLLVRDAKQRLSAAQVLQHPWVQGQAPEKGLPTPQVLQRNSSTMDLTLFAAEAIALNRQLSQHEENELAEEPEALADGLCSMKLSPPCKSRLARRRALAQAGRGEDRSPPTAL"}
{"Compound": "N#CC(c1ccnc(NCCc2cccnc2)n1)c1nc2ccccc2s1 (stereo not shown)", "remaining activity [%]": 90.2}
{"Compound": "CC(C)N(CCC(=O)c1ccc2ccccc2c1)Cc1ccccc1", "remaining activity [%]": 105}
{"Compound": "CC(C)(C)c1nc2c3cc[nH]c(=O)c3c3cc(F)ccc3c2[nH]1", "remaining activity [%]": 101}
{"Compound": "NC(=O)c1ccc(-c2nc(-c3ccc4c(c3)OCCO4)c(-c3ccccn3)[nH]2)cc1", "remaining activity [%]": 101}
{"Compound": "C[C@@H](N)[C@H]1CC[C@H](C(=O)Nc2ccncc2)CC1", "remaining activity [%]": 95}
{"Compound": "CC(C)n1cnc2c(Nc3cccc(Cl)c3)nc(NCCO)nc21", "remaining activity [%]": 98.7}
{"Compound": "CCCCc1c(-c2ccc(O)cc2)[nH]c2nccnc12", "remaining activity [%]": 94.5}
{"Compound": "O=C1NC(=O)/C(=C/c2ccc3c(c2)OC(F)(F)O3)S1", "remaining activity [%]": 93.1}
{"Compound": "COc1cc2c(Nc3ccc(Br)cc3F)ncnc2cc1OCC1CCN(C)CC1", "remaining activity [%]": 49.3}
{"Compound": "Nc1nc(Nc2ccc(S(N)(=O)=O)cc2)nn1C(=S)Nc1c(F)cccc1F", "remaining activity [%]": 23.4}
{"Compound": "O=C(c1ccccc1)c1ccc(N2CCOCC2)cc1O", "remaining activity [%]": 103}
{"Compound": "O=C(O)/C=C/c1cc(Br)c(Br)c(Br)c1Br", "remaining activity [%]": 61.1}
{"Compound": "COc1cc2c(N3CCN(C(=O)Nc4ccc(OC(C)C)cc4)CC3)ncnc2cc1OCCCN1CCCCC1", "remaining activity [%]": 89.7}
{"Compound": "O=C1c2ccccc2-c2nc3nnnn3nc21", "remaining activity [%]": 79.3}
{"Compound": "Clc1ccc(Nc2nnc(Cc3ccncc3)c3ccccc23)cc1", "remaining activity [%]": 98.5}
{"Compound": "CNc1cc2c(Nc3cccc(Br)c3)ncnc2cn1", "remaining activity [%]": 55.2}
{"Compound": "O=Nc1c(-c2c(O)[nH]c3ccccc23)[nH]c2ccccc12", "remaining activity [%]": 99.6}
{"Compound": "c1cc(-c2cnn3cc(-c4ccc(OCCN5CCCCC5)cc4)cnc23)ccn1", "remaining activity [%]": 40.4}
{"Compound": "CCN(CC)CCCCN1c2ccccc2Oc2ccc(Cl)cc21", "remaining activity [%]": 95.6}
{"Compound": "FC(F)(F)c1ccc(/C=C/c2nc(COc3ccc(CCCCn4ccnn4)cc3)co2)cc1", "remaining activity [%]": 89.5}
{"Compound": "O=c1c(-c2ccc(F)cc2)c(-c2ccncc2)[nH]n1-c1ccc(Cl)cc1", "remaining activity [%]": 93.9}
{"Compound": "N#C/C(=C(/N)SC1C=CC=CC1)c1cccc(C(O)c2ccncc2)c1 (stereo not shown)", "remaining activity [%]": 109}
{"Compound": "NC(=O)c1cccc(-c2cc(Nc3ccc(OC(F)(F)F)cc3)ncn2)c1", "remaining activity [%]": 95.9}
{"data": "Sample 3", "target": "Calcium/calmodulin-dependent protein kinase type II subunit alpha (CAMK2A, Homo sapiens, UniProt Q9UQM7)", "effect on": "enzyme activity", "mode": "inhibitor", "concentration": "10 µM", "sequence of UniProt Q9UQM7 (whole entry, looked up)": "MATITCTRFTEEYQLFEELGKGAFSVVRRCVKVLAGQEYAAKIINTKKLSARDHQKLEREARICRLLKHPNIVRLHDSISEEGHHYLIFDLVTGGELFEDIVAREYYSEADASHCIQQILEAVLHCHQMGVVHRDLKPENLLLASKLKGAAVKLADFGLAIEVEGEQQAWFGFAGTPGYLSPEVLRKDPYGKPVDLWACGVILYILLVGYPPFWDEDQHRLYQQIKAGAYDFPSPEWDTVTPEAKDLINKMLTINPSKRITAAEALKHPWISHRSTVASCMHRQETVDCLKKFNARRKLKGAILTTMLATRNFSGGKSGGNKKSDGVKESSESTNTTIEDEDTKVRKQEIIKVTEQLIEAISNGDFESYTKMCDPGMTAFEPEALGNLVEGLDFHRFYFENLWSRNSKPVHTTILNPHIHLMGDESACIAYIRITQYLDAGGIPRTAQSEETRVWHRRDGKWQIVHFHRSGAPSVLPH"}
{"Structure (SMILES)": "CC(C)=CCc1c(O)ccc(C(=O)[C@@H]2[C@@H](c3c(O)cc(O)c4c(=O)c(CC=C(C)C)c(-c5ccc(O)cc5O)oc34)C=C(C)C[C@H]2c2ccc(O)cc2O)c1O", "inhibition": "-16%"}
{"Structure (SMILES)": "CCOC(=O)[N-]c1c[n+](N2CCOCC2)no1", "inhibition": "-6%"}
{"Structure (SMILES)": "Nc1nc2c(ncn2COCCO)c(=O)[nH]1", "inhibition": "-8%"}
{"Structure (SMILES)": "COc1cc(O)c2c(=O)c(OC)c(-c3ccc(O)c(OC)c3)oc2c1", "inhibition": "4%"}
{"Structure (SMILES)": "CC(=O)O[C@@H]1CC[C@@]2(C)[C@@H](CC[C@]3(C)[C@@H]2CC=C2[C@@H]4CC(C)(C)CC[C@]4(C)CC[C@]23C)[C@@]1(C)C(=O)O", "inhibition": "-2%"}
{"Structure (SMILES)": "COc1ccc(-c2coc3cc(O)ccc3c2=O)cc1O", "inhibition": "-8%"}
{"Structure (SMILES)": "CCC[C@@H]1C[C@@H](C(=O)N[C@@H]([C@H]2O[C@H](SC)[C@H](OP(=O)(O)O)[C@@H](O)[C@H]2O)[C@H](C)Cl)N(C)C1", "inhibition": "-15%"}
{"Structure (SMILES)": "CC(=O)N1CCN(c2ccc(OC[C@H]3CO[C@](Cn4ccnc4)(c4ccc(Cl)cc4Cl)O3)cc2)CC1", "inhibition": "1%"}
{"Structure (SMILES)": "O=C1c2ccccc2C(=O)C1c1ccccc1", "inhibition": "-3%"}
{"Structure (SMILES)": "C[C@@H](O)[C@H]1C(=O)N2C(C(=O)[O-])=C(SC3Cn4cnc[n+]4C3)[C@H](C)[C@H]12 (stereo partly shown)", "inhibition": "-11%"}
{"Structure (SMILES)": "O=C1Cc2ccccc2N1", "inhibition": "0%"}
{"Structure (SMILES)": "CCCOc1ccc(C(=O)OCCN(CC)CC)cc1N", "inhibition": "-5%"}
{"Structure (SMILES)": "C/C(=C/CC[C@]1(CO)CC[C@]2(C)[C@H](CC[C@@H]3[C@@]4(C)CC[C@H](O[C@@H]5O[C@H](CO)[C@@H](O)[C@H](O)[C@H]5O[C@@H]5O[C@H](CO)[C@@H](O)[C@H](O)[C@H]5O)[C@@](C)(CO[C@@H]5O[C@H](CO)[C@@H](O)[C@H](O)[C@H]5O)[C@@H]4CC[C@]32C)[C@H]1O)CO", "inhibition": "8%"}
{"data": "Sample 4", "SMILES": "Cn1cc(Cl)c2c(Oc3c(F)cc(Nc4cc(Cl)nc(N)n4)cc3F)ccnc21", "technique": "competition with immobilised ligand", "concentration": "0.1 µM"}
{"target": "STK39 (Homo sapiens, UniProt Q9UEW8)", "effect on": "cell-free assay", "remaining binding [%]": 100}
{"target": "Tyrosine-protein kinase ABL1, non-phosphorylated (ABL1, Homo sapiens, UniProt P00519, Q252H)", "effect on": "cell-free assay", "remaining binding [%]": 78}
{"target": "RPS6KB1 (Homo sapiens, UniProt P23443)", "effect on": "cell-free assay", "remaining binding [%]": 84}
{"target": "DAPK2 (Homo sapiens, UniProt Q9UIK4)", "effect on": "cell-free assay", "remaining binding [%]": 100}
{"target": "ACVR2B (Homo sapiens, UniProt Q13705)", "effect on": "binding", "remaining binding [%]": 79}
{"target": "EGFR (Homo sapiens, UniProt P00533, L861Q)", "effect on": "cell-free assay", "remaining binding [%]": 100}
{"target": "MAP3K4 (Homo sapiens, UniProt Q9Y6R4)", "effect on": "cell-free assay", "remaining binding [%]": 100}
{"target": "GSK3A (Homo sapiens, UniProt P49840)", "effect on": "cell-free assay", "remaining binding [%]": 99}
{"target": "CSNK1A1L (Homo sapiens, UniProt Q8N752)", "effect on": "cell-free assay", "remaining binding [%]": 98}
{"target": "CDK16 (Homo sapiens, UniProt Q00536)", "effect on": "cell-free assay", "remaining binding [%]": 100}
{"target": "MAP3K12 (Homo sapiens, UniProt Q12852)", "effect on": "cell-free assay", "remaining binding [%]": 100}
{"target": "RIOK3 (Homo sapiens, UniProt O14730)", "effect on": "cell-free assay", "remaining binding [%]": 93}
{"target": "PIK3CA (Homo sapiens, UniProt P42336, C420R)", "effect on": "cell-free assay", "remaining binding [%]": 82}
{"target": "Ribosomal protein S6 kinase alpha-3, C-terminal kinase domain (RPS6KA3, Homo sapiens, UniProt P51812)", "effect on": "cell-free assay", "remaining binding [%]": 79}
{"target": "STK11 (Homo sapiens, UniProt Q15831)", "effect on": "cell-free assay", "remaining binding [%]": 100}
{"target": "CAMK2G (Homo sapiens, UniProt Q13555)", "effect on": "cell-free assay", "remaining binding [%]": 100}
{"target": "GRK4 (Homo sapiens, UniProt P32298)", "effect on": "cell-free assay", "remaining binding [%]": 100}
{"target": "PRKG1 (Homo sapiens, UniProt Q13976)", "effect on": "cell-free assay", "remaining binding [%]": 83}
{"target": "CSNK1A1 (Homo sapiens, UniProt P48729)", "effect on": "cell-free assay", "remaining binding [%]": 93}
{"target": "NEK10 (Homo sapiens, UniProt Q6ZWH5)", "effect on": "cell-free assay", "remaining binding [%]": 66}
{"target": "STK32C (Homo sapiens, UniProt Q86UX6)", "effect on": "cell-free assay", "remaining binding [%]": 100}
{"target": "MAP3K2 (Homo sapiens, UniProt Q9Y2U5)", "effect on": "cell-free assay", "remaining binding [%]": 79}
{"target": "EGFR (Homo sapiens, UniProt P00533, G719C)", "effect on": "cell-free assay", "remaining binding [%]": 95}
{"target": "MAST1 (Homo sapiens, UniProt Q9Y2H9)", "effect on": "cell-free assay", "remaining binding [%]": 100}
{"target": "MYLK2 (Homo sapiens, UniProt Q9H1R3)", "effect on": "cell-free assay", "remaining binding [%]": 99}
{"note": "For quick reference, copied from above (sample 3):"}
{"Structure (SMILES)": "CC(=O)O[C@@H]1CC[C@@]2(C)[C@@H](CC[C@]3(C)[C@@H]2CC=C2[C@@H]4CC(C)(C)CC[C@]4(C)CC[C@]23C)[C@@]1(C)C(=O)O", "inhibition": "-2%"}
{"Structure (SMILES)": "COc1ccc(-c2coc3cc(O)ccc3c2=O)cc1O", "inhibition": "-8%"}
{"Structure (SMILES)": "CCC[C@@H]1C[C@@H](C(=O)N[C@@H]([C@H]2O[C@H](SC)[C@H](OP(=O)(O)O)[C@@H](O)[C@H]2O)[C@H](C)Cl)N(C)C1", "inhibition": "-15%"}
{"Structure (SMILES)": "CC(=O)N1CCN(c2ccc(OC[C@H]3CO[C@](Cn4ccnc4)(c4ccc(Cl)cc4Cl)O3)cc2)CC1", "inhibition": "1%"}
{"Structure (SMILES)": "O=C1c2ccccc2C(=O)C1c1ccccc1", "inhibition": "-3%"}
{"Structure (SMILES)": "C[C@@H](O)[C@H]1C(=O)N2C(C(=O)[O-])=C(SC3Cn4cnc[n+]4C3)[C@H](C)[C@H]12 (stereo partly shown)", "inhibition": "-11%"}
{"Structure (SMILES)": "O=C1Cc2ccccc2N1", "inhibition": "0%"}
{"Structure (SMILES)": "CCCOc1ccc(C(=O)OCCN(CC)CC)cc1N", "inhibition": "-5%"}
